Published values pooled from the literature.
Parts stem from different laboratories: compare values within a part only.
UniProt Q8N568, sequence (whole entry, looked up): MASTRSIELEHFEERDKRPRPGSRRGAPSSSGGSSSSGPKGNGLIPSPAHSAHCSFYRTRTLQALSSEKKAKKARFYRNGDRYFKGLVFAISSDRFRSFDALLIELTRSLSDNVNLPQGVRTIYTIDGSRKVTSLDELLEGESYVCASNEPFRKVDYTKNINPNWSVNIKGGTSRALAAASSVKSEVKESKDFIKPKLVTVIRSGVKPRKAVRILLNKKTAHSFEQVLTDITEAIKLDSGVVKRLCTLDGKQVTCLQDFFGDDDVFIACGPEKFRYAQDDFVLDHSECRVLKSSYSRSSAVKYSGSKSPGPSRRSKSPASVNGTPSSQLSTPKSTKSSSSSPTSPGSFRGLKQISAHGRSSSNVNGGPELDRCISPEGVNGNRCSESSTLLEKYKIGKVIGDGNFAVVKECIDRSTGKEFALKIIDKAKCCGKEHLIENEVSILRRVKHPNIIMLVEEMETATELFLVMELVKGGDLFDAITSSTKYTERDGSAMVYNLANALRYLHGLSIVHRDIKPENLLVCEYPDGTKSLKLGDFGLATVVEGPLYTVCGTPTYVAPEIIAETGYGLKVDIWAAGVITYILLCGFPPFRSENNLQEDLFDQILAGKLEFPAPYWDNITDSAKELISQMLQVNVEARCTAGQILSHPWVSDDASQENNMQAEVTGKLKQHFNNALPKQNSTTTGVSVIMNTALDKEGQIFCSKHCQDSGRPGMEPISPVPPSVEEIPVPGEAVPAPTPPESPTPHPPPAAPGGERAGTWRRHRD
UniProt P31751, sequence (whole entry, looked up): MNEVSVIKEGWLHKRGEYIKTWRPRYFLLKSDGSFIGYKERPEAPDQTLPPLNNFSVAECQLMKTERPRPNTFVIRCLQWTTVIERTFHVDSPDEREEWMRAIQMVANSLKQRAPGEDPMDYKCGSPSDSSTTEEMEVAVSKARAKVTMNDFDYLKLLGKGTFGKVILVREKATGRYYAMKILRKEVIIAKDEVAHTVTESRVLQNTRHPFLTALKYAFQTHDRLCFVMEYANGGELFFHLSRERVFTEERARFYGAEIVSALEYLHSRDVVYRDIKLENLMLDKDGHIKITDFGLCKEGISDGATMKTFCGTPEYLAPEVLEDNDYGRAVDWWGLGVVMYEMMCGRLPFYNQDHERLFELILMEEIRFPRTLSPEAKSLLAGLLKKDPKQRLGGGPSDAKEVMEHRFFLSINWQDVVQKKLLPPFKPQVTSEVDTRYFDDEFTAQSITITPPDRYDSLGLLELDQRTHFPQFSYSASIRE
UniProt Q02750, sequence (whole entry, looked up): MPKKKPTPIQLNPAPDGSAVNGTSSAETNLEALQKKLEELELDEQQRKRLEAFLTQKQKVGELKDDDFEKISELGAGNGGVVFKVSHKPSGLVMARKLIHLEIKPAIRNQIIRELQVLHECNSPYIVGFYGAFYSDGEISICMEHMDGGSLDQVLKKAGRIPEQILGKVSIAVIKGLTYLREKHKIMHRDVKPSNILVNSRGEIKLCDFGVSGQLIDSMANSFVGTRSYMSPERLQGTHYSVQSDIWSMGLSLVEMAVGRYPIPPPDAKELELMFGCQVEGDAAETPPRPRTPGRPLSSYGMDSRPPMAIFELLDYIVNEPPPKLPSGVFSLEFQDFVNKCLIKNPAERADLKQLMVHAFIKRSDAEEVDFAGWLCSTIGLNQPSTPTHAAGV
UniProt Q15759, sequence (whole entry, looked up): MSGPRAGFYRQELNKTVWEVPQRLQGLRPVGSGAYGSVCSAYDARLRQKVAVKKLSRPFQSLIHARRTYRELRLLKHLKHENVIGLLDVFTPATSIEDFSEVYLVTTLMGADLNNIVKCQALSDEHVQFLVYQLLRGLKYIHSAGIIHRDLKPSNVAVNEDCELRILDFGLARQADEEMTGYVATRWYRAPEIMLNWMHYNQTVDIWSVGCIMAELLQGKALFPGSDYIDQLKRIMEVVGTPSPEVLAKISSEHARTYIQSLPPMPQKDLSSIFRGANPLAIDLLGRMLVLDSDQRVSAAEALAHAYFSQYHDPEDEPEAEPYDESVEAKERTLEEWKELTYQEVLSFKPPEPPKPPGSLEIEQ
UniProt Q13464, sequence (whole entry, looked up): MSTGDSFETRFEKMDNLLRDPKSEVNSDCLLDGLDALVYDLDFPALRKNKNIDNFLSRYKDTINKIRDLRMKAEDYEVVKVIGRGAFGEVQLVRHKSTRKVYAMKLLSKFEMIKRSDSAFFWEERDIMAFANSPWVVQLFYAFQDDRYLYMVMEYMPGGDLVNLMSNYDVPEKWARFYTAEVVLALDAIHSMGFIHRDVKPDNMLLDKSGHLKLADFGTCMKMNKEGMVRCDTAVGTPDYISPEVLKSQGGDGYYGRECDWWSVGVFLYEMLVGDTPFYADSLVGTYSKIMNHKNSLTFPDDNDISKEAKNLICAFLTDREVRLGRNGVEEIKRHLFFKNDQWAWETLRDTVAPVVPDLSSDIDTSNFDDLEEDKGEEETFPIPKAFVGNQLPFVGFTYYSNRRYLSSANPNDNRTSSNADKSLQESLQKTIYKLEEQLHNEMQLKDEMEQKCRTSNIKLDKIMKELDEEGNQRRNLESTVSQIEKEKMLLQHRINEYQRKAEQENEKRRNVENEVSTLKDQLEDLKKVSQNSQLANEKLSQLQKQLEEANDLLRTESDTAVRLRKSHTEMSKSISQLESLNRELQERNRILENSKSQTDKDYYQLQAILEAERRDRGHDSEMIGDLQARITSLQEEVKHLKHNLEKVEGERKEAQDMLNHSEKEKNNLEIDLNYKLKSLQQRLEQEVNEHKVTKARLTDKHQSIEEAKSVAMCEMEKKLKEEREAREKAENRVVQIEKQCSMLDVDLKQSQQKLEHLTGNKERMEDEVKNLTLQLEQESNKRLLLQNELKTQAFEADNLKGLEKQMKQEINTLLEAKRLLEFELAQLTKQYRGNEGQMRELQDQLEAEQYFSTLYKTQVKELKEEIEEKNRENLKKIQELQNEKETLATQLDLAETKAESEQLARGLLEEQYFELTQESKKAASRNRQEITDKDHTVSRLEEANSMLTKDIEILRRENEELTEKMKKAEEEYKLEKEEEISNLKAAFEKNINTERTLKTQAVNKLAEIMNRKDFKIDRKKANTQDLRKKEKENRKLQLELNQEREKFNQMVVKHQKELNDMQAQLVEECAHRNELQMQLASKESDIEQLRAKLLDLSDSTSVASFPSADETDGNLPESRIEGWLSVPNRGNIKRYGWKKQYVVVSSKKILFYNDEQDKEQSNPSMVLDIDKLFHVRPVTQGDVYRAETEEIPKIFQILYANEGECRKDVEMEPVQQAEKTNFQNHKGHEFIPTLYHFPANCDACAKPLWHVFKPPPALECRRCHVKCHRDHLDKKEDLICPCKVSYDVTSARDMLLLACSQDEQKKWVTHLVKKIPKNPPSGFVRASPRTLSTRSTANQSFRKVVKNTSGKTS
UniProt P42681, sequence (whole entry, looked up): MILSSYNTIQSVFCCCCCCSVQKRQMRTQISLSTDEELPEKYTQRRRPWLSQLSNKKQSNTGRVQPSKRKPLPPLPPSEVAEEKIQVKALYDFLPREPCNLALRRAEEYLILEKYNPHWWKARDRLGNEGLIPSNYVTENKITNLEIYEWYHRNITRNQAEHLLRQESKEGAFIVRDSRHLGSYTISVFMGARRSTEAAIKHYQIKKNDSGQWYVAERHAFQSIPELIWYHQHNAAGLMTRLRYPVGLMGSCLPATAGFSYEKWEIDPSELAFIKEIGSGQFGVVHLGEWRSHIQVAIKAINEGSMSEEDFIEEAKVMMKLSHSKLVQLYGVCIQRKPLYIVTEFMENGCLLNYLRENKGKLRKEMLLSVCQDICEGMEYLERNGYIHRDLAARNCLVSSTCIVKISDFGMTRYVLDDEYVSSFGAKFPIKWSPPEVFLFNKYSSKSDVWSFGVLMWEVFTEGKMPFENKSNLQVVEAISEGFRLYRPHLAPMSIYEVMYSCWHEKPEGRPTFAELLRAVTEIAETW
UniProt P28482, sequence (whole entry, looked up): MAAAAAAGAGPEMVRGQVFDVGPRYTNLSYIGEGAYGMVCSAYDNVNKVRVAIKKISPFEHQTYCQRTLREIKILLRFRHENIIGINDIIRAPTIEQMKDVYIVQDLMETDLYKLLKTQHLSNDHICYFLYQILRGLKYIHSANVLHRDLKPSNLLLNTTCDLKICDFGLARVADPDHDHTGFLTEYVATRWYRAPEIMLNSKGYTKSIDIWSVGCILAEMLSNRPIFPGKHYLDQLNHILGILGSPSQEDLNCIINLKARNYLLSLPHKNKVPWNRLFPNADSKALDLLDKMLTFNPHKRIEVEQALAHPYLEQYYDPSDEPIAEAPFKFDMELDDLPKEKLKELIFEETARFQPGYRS
UniProt Q9HAZ1, sequence (whole entry, looked up): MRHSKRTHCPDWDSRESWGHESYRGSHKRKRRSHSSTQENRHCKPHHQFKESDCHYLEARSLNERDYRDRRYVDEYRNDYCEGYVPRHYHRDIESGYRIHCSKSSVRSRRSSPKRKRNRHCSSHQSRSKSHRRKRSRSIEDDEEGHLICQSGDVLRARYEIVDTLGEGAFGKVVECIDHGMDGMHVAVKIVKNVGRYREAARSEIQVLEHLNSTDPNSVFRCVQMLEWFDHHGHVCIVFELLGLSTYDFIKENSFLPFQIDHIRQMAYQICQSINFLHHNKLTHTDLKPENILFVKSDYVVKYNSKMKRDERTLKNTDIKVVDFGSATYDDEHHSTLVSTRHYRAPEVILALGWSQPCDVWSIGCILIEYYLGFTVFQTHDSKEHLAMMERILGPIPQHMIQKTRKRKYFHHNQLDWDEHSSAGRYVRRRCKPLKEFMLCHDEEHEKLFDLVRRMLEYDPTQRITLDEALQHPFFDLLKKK

Series 1 — cell line: HaCaT; tested at: 100 µM; time: 18 h; quantity: viability
C#C[C@]1(O)C=C[C@H]2[C@@H]3CCC4=CC(=O)CC[C@@H]4[C@H]3CC[C@@]21CC: 85.2%
Cc1cccc(C)c1N=C1NCCCS1: 112%
CCN(CC)CCOC(=O)C(O)(c1ccccc1)c1ccccc1: 117%
CC(CCc1ccccc1)NC(C)C(O)c1ccc(O)cc1 (centres unmarked): 110%
COC1=C[C@@H]2[C@@H]3Cc4ccc(OC)c(O)c4[C@]2(CCN3C)CC1=O: 107%
COc1cccc2c1cc([N+](=O)[O-])c1c(C(=O)O)cc3c(c12)OCO3: 78.3%

Series 2 — effect on: binding; technique: radioligand binding; tested at: 10 µM; quantity: inhibition
SMILES: CCC(=O)N[C@H]1CC[C@@H](C(=O)N(C)c2ccc(-c3nc4ccccc4o3)cc2)C1
OPRD1 (Homo sapiens, UniProt P41143): -17.5%
HTR2C (Homo sapiens, UniProt P28335): 8.87%
CHRM1 (Homo sapiens, UniProt P11229): 3.53%

Series 3 — effect on: enzyme activity; mode: inhibitor; tested at: 0.5 µM; reference: control; quantity: remaining activity
SMILES: COc1ccc2c(c[n+](C)c3c4cc5c(cc4ccc23)OCO5)c1OC
AKT2 (Homo sapiens, UniProt P31751): 93.6%
CLK3 (Homo sapiens, UniProt P49761): 95.2%
DCLK2 (Homo sapiens, UniProt Q8N568): 96%
PLK3 (Homo sapiens, UniProt Q9H4B4): 100%
PNCK (Homo sapiens, UniProt Q6P2M8): 103%
ROCK1 (Homo sapiens, UniProt Q13464): 99.4%
MAPK1 (Homo sapiens, UniProt P28482): 101%
TXK (Homo sapiens, UniProt P42681): 100%
CLK4 (Homo sapiens, UniProt Q9HAZ1): 89.8%
CAMK4 (Homo sapiens, UniProt Q16566): 99.9%
Cyclin-dependent kinase 9, with cyclin K (CDK9, Homo sapiens, UniProt P50750): 95.6%
MAPK11 (Homo sapiens, UniProt Q15759): 91.6%
MAP2K1 (Homo sapiens, UniProt Q02750): 97.8%
PRKG2 (Homo sapiens, UniProt Q13237): 68.7%

Series 4 — cell line: mouse MPNST tumor cells; technique: high-content nuclear imaging; refers to: cell number; tested at: 10 µM; time: 12 h; setting: mean of 2 replicates; reference: plate mean; reading: higher = more cells; quantity: nuclei count
Clc1cccc(SC2CCNCC2)n1: 2.5 z-score
CN(C(=O)Cc1ccc(Cl)c(Cl)c1)[C@H](CN1CCCC1)c1ccccc1: -5.83 z-score
COC1(C[S+]([O-])c2ccccc2)CCN(CCc2c[nH]c3ccc(F)cc23)CC1 (centres unmarked): 1.02 z-score
CN1[C@@H]2CC[C@H]1C[C@@H](OC(=O)c1cc(Cl)cc(Cl)c1)C2: 2.2 z-score
O=C(NCNC(=O)NC1C(=O)NC(=O)N1CO)NC1C(=O)NC(=O)N1CO (centres unmarked): 1.4 z-score
COc1ccc2c3c([nH]c2c1)[C@H](CC(C)C)N1C(=O)[C@H](CCC(=O)OC(C)(C)C)NC(=O)[C@@H]1C3: 6.52 z-score

Repeated from above (series 3):
PLK3 (Homo sapiens, UniProt Q9H4B4): 100%
PNCK (Homo sapiens, UniProt Q6P2M8): 103%
